Measurements from different studies.
Protocols differ between the studies behind these lines. ≈ marks a conversion by molar mass, not a printed value.
Organism: Escherichia coli

SMILES | test | system | conditions | measurement | value
CCCCCC(=O)NCC(=O)N[C@@H](CC(C)C)C(=O)N[C@@H](CC(C)C)C(=O)N[C@@H](CCCCN)C(=O)N[C@@H](CCCNC(=N)N)C(=O)N[C@H](C(=O)N[C@@H](CCCCN)C(=O)N[C@H](C(=O)N[C@@H](CC(C)C)C(=O)N[C@@H](CC(C)C)C(=O)NCCCC[C@H](NC(=O)[C@H](CC(C)C)NC(=O)[C@H](CC(C)C)NC(=O)[C@@H](NC(=O)[C@H](CCCCN)NC(=O)[C@@H](NC(=O)[C@H](CCCNC(=N)N)NC(=O)[C@H](CCCCN)NC(=O)[C@H](CC(C)C)NC(=O)[C@H](CC(C)C)NC(=O)CNC(=O)CCCCC)[C@@H](C)CC)[C@@H](C)O)C(N)=O)[C@@H](C)O)[C@@H](C)CC | checkerboard | ATCC 25922 | with: gentamicin | FIC index | 0.375
CC[C@H](C)[C@@H]1NC(=O)[C@H](CCCCN)NC(=O)[C@@H](NC(=O)[C@H](C)NC(=O)[C@@H](NC(=O)[C@H](CC(C)C)NC(=O)[C@H](CC(N)=O)NC(=O)[C@@H](NC(=O)CNC(=O)[C@H](CC(C)C)NC(=O)[C@H](CCCNC(=N)N)NC(=O)[C@H](C)NC(=O)[C@H](CC(C)C)NC(=O)[C@H](CC(=O)O)NC(=O)[C@H](CCCCN)NC(=O)CNC(=O)[C@H](CC(C)C)NC(=O)CNC(=O)[C@H](CCCCN)NC(=O)[C@H](CO)NC(=O)[C@H](C)NC(=O)[C@H](Cc2ccccc2)NC(=O)[C@H](CCCCN)NC(=O)[C@H](C)NC(=O)[C@@H](NC(=O)CNC(=O)[C@H](CCCNC(=N)N)NC(=O)[C@H](Cc2ccccc2)NC(=O)[C@@H](NC(=O)[C@H](CO)NC(=O)[C@H](CO)NC(=O)[C@H](Cc2ccccc2)NC(=O)CN)[C@@H](C)CC)C(C)C)C(C)C)C(C)C)CSSC[C@@H](C(=O)O)NC(=O)[C@H](CCC(N)=O)NC(=O)[C@H](CCCCN)NC(=O)[C@H](CO)NC1=O |  | ATCC 8739 | MIC | time to complete killing | 30 min
O=C(O)[C@@H]1Cc2c([nH]c3ccccc23)[C@@H](c2ccc(Cl)cc2F)N1 |  | BL21(DE3) | 250 µM, 18 h | growth inhibition | 0%
CC[C@H](C)[C@H](NC(=O)[C@H](CCCCN)NC(=O)[C@H](CCCCN)NC(=O)[C@H](CC(C)C)NC(=O)[C@H](CCCCN)NC(=O)[C@H](CCC(=O)O)NC(=O)[C@H](CCCCN)NC(=O)[C@@H](NC(=O)[C@H](CCCCN)NC(=O)[C@H](CC(N)=O)NC(=O)[C@H](CCCNC(=N)N)NC(=O)[C@H](Cc1ccccc1)NC(=O)[C@H](CCCCN)NC(=O)[C@H](CCCNC(=N)N)NC(=O)[C@H](CC(C)C)NC(=O)[C@H](CCCNC(=N)N)NC(=O)[C@H](CCCCN)NC(=O)[C@H](CCCNC(=N)N)NC(=O)[C@H](CC(C)C)NC(=O)[C@@H](N)CC(C)C)[C@@H](C)CC)C(=O)NCC(=O)N[C@@H](CCC(N)=O)C(=O)N[C@@H](CCCCN)C(=O)N[C@H](C(=O)N[C@@H](CCC(N)=O)C(=O)NCC(=O)N[C@@H](Cc1ccccc1)C(=O)N[C@H](C(=O)N1CCC[C@H]1C(=O)N[C@@H](CCCCN)C(=O)N[C@@H](CC(C)C)C(=O)N[C@H](C(=O)N1CCC[C@H]1C(=O)N[C@@H](CCCNC(=N)N)C(=O)N[C@H](C(=O)N[C@@H](CCC(=O)O)C(=O)N[C@@H](CO)C(=O)O)[C@@H](C)O)C(C)C)C(C)C)[C@@H](C)CC | inhibition zone | TOP10 |  | lethal concentration | 1.93 µM
C[C@@](O)(C(F)F)[C@H](NC(=O)c1ccc(C#CC#CC2CC2)cc1)C(=O)NO |  | W3110 |  | MIC after serial passage | 1 to 2 µg/mL (≈ 2.66 to 5.31 µM)
C[C@]1(COC(=O)c2ccccc2O)[C@H](C(=O)O)N2C(=O)/C(=C/c3ccccn3)[C@H]2S1(=O)=O | broth microdilution | MG1655 expressing CTX-M-14 | 16 µg/mL, 20 h, 37 °C | MIC of ampicillin | 256 µg/mL
CCCCCCCCCCCCCCCCC(=O)N[C@@H](CCCCN)C(=O)N[C@@H](CCCCN)C(=O)N[C@@H](CCCCN)C(=O)N[C@@H](CCCCN)C(=O)N[C@@H](CCCCN)C(N)=O |  | K12 |  | MBC | 16 µg/mL (≈ 17.6 µM)
CCCC(=O)NCC(=O)N[C@@H](CC(C)C)C(=O)N[C@@H](CC(C)C)C(=O)N[C@@H](CCCCN)C(=O)N[C@@H](CCCNC(=N)N)C(=O)N[C@H](C(=O)N[C@@H](CCCCN)C(=O)N[C@H](C(=O)N[C@@H](CC(C)C)C(=O)N[C@@H](CC(C)C)C(=O)NCCCC[C@H](NC(=O)[C@H](CCCCNC(=O)[C@H](CC(C)C)NC(=O)[C@H](CC(C)C)NC(=O)[C@@H](NC(=O)[C@H](CCCCN)NC(=O)[C@@H](NC(=O)[C@H](CCCNC(=N)N)NC(=O)[C@H](CCCCN)NC(=O)[C@H](CC(C)C)NC(=O)[C@H](CC(C)C)NC(=O)CNC(=O)CCC)[C@@H](C)CC)[C@@H](C)O)NC(=O)[C@H](CC(C)C)NC(=O)[C@H](CC(C)C)NC(=O)[C@@H](NC(=O)[C@H](CCCCN)NC(=O)[C@@H](NC(=O)[C@H](CCCNC(=N)N)NC(=O)[C@H](CCCCN)NC(=O)[C@H](CC(C)C)NC(=O)[C@H](CC(C)C)NC(=O)CNC(=O)CCC)[C@@H](C)CC)[C@@H](C)O)C(N)=O)[C@@H](C)O)[C@@H](C)CC | checkerboard | ATCC 25922 | with: rifampicin | FIC index | 0.312
CC[C@H](C)[C@H](NC(=O)[C@H](CCCCN)NC(=O)[C@H](CCCCN)NC(=O)[C@H](CC(C)C)NC(=O)[C@H](CCCCN)NC(=O)[C@H](CCC(=O)O)NC(=O)[C@H](CCCCN)NC(=O)[C@@H](NC(=O)[C@H](CCCCN)NC(=O)[C@H](CC(N)=O)NC(=O)[C@H](CCCNC(=N)N)NC(=O)[C@H](Cc1ccccc1)NC(=O)[C@H](CCCCN)NC(=O)[C@H](CCCNC(=N)N)NC(=O)[C@H](CC(C)C)NC(=O)[C@H](CCCNC(=N)N)NC(=O)[C@H](CCCCN)NC(=O)[C@H](CCCNC(=N)N)NC(=O)[C@H](CC(C)C)NC(=O)CN)[C@@H](C)CC)C(=O)NCC(=O)N[C@@H](CCC(N)=O)C(=O)N[C@@H](CCCCN)C(=O)N[C@H](C(=O)N[C@@H](CCC(N)=O)C(=O)NCC(=O)N[C@@H](Cc1ccccc1)C(=O)N[C@H](C(=O)N1CCC[C@H]1C(=O)N[C@@H](CCCCN)C(=O)N[C@@H](CC(C)C)C(=O)N[C@@H](C)C(=O)N1CCC[C@H]1C(=O)N[C@@H](CCCNC(=N)N)C(=O)N[C@H](C(=O)N[C@@H](CC(=O)O)C(=O)N[C@@H](Cc1ccc(O)cc1)C(=O)O)[C@@H](C)O)C(C)C)[C@@H](C)CC | inhibition zone | JM109 |  | lethal concentration | 1.52 µM
CC[C@H](C)[C@H](NC(=O)[C@H](CCN)NC(=O)[C@H](Cc1ccccc1)NC(=O)[C@H](Cc1ccccc1)NC(=O)CCCCCOC(=O)c1cn(C2CC2)c2cc(N3CCNCC3)c(F)cc2c1=O)C(=O)N[C@@H](CCN)C(=O)N[C@H](Cc1ccccc1)C(=O)N[C@@H](CC(C)C)C(=O)N[C@@H](CCN)C(=O)N[C@@H](C(=O)N[C@@H](CC(C)C)C(=O)N[C@@H](CO)C(N)=O)C(C)C |  |  | 6.25 µM, 12 h, 37 °C | survival | 20.6%
O=C(CSc1nc2ccccc2[nH]1)N/N=C/c1cc2c(s1)CCCC2 |  | TolC | 50 µM | growth inhibition | 73%
CC[C@H](C)[C@H](NC(=O)[C@H](CCCCN)NC(=O)[C@H](CCCCN)NC(=O)[C@H](CC(C)C)NC(=O)[C@H](CCCCN)NC(=O)[C@H](CCC(=O)O)NC(=O)[C@H](CCCCN)NC(=O)[C@@H](NC(=O)[C@H](CCCCN)NC(=O)[C@H](CC(N)=O)NC(=O)[C@H](CCCNC(=N)N)NC(=O)[C@H](Cc1ccccc1)NC(=O)[C@H](CCCCN)NC(=O)[C@H](CCCNC(=N)N)NC(=O)[C@H](CC(C)C)NC(=O)[C@H](CCCNC(=N)N)NC(=O)[C@H](CCCCN)NC(=O)[C@H](CCCNC(=N)N)NC(=O)[C@@H](N)CC(C)C)[C@@H](C)CC)C(=O)NCC(=O)N[C@@H](CCC(N)=O)C(=O)N[C@@H](CCCCN)C(=O)N[C@H](C(=O)N[C@@H](CCC(N)=O)C(=O)NCC(=O)N[C@@H](Cc1ccccc1)C(=O)N[C@H](C(=O)N1CCC[C@H]1C(=O)N[C@@H](CCCCN)C(=O)N[C@@H](CC(C)C)C(=O)O)C(C)C)[C@@H](C)CC | inhibition zone | CIP. J14b |  | lethal concentration | 1.77 µM

Excerpt of the above:
SMILES | test | system | conditions | measurement | value
O=C(CSc1nc2ccccc2[nH]1)N/N=C/c1cc2c(s1)CCCC2 |  | TolC | 50 µM | growth inhibition | 73%
CCCC(=O)NCC(=O)N[C@@H](CC(C)C)C(=O)N[C@@H](CC(C)C)C(=O)N[C@@H](CCCCN)C(=O)N[C@@H](CCCNC(=N)N)C(=O)N[C@H](C(=O)N[C@@H](CCCCN)C(=O)N[C@H](C(=O)N[C@@H](CC(C)C)C(=O)N[C@@H](CC(C)C)C(=O)NCCCC[C@H](NC(=O)[C@H](CCCCNC(=O)[C@H](CC(C)C)NC(=O)[C@H](CC(C)C)NC(=O)[C@@H](NC(=O)[C@H](CCCCN)NC(=O)[C@@H](NC(=O)[C@H](CCCNC(=N)N)NC(=O)[C@H](CCCCN)NC(=O)[C@H](CC(C)C)NC(=O)[C@H](CC(C)C)NC(=O)CNC(=O)CCC)[C@@H](C)CC)[C@@H](C)O)NC(=O)[C@H](CC(C)C)NC(=O)[C@H](CC(C)C)NC(=O)[C@@H](NC(=O)[C@H](CCCCN)NC(=O)[C@@H](NC(=O)[C@H](CCCNC(=N)N)NC(=O)[C@H](CCCCN)NC(=O)[C@H](CC(C)C)NC(=O)[C@H](CC(C)C)NC(=O)CNC(=O)CCC)[C@@H](C)CC)[C@@H](C)O)C(N)=O)[C@@H](C)O)[C@@H](C)CC | checkerboard | ATCC 25922 | with: rifampicin | FIC index | 0.312
